Results of several laboratories.
A part holds a random share of what one study measured. Values joined by “and” are separate records of one study, mostly repeats; a detail may differ.
UniProt P28223, sequence (whole entry, looked up): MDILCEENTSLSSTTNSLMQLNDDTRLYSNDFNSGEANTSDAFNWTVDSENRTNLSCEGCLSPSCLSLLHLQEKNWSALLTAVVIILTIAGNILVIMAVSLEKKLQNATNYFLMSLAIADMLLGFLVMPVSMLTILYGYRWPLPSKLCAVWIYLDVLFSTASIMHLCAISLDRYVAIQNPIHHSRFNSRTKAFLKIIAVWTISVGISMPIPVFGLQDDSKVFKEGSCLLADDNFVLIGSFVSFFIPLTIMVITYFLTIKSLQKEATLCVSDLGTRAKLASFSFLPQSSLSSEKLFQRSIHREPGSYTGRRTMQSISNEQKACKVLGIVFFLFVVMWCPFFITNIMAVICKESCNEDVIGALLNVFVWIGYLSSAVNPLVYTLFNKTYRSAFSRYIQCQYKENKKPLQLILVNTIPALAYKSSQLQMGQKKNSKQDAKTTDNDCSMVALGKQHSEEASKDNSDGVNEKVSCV
UniProt P41145, sequence (whole entry, looked up): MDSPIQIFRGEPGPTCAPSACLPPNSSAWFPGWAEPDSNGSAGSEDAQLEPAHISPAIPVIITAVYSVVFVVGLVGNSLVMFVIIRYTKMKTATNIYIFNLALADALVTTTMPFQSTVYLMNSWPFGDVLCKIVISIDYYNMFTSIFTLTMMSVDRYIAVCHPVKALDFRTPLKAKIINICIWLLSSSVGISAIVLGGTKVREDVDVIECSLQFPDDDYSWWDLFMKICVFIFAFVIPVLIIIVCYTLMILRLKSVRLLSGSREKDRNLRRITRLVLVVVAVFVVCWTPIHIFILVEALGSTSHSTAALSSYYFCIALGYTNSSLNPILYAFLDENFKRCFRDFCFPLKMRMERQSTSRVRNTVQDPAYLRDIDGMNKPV
UniProt P18089, sequence (whole entry, looked up): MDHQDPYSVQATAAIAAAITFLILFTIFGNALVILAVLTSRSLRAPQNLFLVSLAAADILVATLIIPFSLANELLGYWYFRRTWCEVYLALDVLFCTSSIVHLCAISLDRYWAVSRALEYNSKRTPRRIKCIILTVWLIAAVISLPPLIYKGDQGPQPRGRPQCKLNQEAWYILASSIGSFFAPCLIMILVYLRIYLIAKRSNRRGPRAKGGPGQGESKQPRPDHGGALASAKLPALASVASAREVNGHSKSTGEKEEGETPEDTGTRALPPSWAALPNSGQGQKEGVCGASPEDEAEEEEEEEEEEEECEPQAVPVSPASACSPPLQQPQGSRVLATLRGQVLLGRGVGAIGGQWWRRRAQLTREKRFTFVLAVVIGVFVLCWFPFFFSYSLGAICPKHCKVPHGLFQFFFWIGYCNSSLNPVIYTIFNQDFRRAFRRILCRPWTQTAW

Set 1
SMILES: c1ccc(Oc2ccc(Nc3c4c(nc5ccccc35)CCC4)cc2)cc1
Organism: Leishmania donovani
Observed: parasite growth
strain | matrix | concentration | notes | inhibition
– | – | 16.66 µM | promastigote | 75%
DD8 amphotericin B-resistant | promastigotes | 0.016 µM | – | 2% and 5%
DD8 amphotericin B-resistant | intracellular amastigotes | 40 µM | – | 100%
DD8 amphotericin B-resistant | intracellular amastigotes | 0.04 µM | – | 2% and 1% and 4%
– | – | 2 µM | intracellular, amastigote | 7%
DD8 amphotericin B-resistant | promastigotes | 66.66 µM | – | 99% and 100%
– | – | 80 µM | intracellular, amastigote | 100%

Set 2
Cell line: HEK-293T
Observed: pseudovirus infection
Method: FDA-approved drug library counter-screen
Organism: VSV pseudotyped with VSV-G
Concentration: 10 µM
Time: 16 h
Reference: vehicle-treated
Structure (SMILES) | GFP-positive cells
C[C@@H](c1ncncc1F)[C@](O)(Cn1cncn1)c1ccc(F)cc1F | 104%
C[C@]12CCC3=C4CCC(=O)C=C4CC[C@H]3[C@@H]1CC[C@@]2(O)CC#N | 114%
CCCCc1ncc(/C=C(\Cc2cccs2)C(=O)O)n1Cc1ccc(C(=O)O)cc1 | 122%
COc1c(N2CCNC(C)C2)c(F)cc2c(=O)c(C(=O)O)cn(C3CC3)c12 (stereo not shown) | 111%
COc1cc2nc(N3CCN(C(=O)C4CCCO4)CC3)nc(N)c2cc1OC (stereo not shown) | 99.4%
Cc1c(-c2ccc(O)cc2)n(Cc2ccc(OCCN3CCCCCC3)cc2)c2ccc(O)cc12 | 115%
CN1CCC(OC(c2ccccc2)c2ccccc2)CC1 | 116%
COc1cc2c(Nc3ccc(Br)cc3F)ncnc2cc1OCC1CCN(C)CC1 | 107%
CN(C)CCC=C1c2ccccc2CCc2ccccc21 | 106%
CN(C)CCC[C@@]1(c2ccc(F)cc2)OCc2cc(C#N)ccc21 | 102%
C=CC1=C(C(=O)O)N2C(=O)[C@@H](NC(=O)/C(=N\O)c3csc(N)n3)[C@H]2SC1 | 112%
C=CC(N)CCC(=O)O (stereo not shown) | 132%
Cc1ccccc1C(=O)Nc1ccc(C(=O)N2CCCC(O)c3cc(Cl)ccc32)c(C)c1 (stereo not shown) | 116%

Set 3
Cell line: HEK-293T-ACE2-TMPRSS2
Method: cell count
Concentration: concentration not given
SMILES | viability [%]
CC(=O)N1CCCSc2ccc(S(=O)(=O)N3CCSc4ccccc43)cc21 | 77
CN(Cc1cccc(C(=O)Nc2nccn2C)c1)C1Cc2ccccc2C1 | 90
Cc1n[nH]c(C)c1C(NC(=O)CSC12CC3CC(CC(C3)C1)C2)C(=O)O (stereo not shown) | 89
Cc1nn(-c2ccccc2)c2sc(C(=O)NCCCN3CCC(Cc4ccccc4)CC3)cc12 | 68
Cc1ccc(CCNc2ncnc3scc(-c4ccc(F)cc4)c23)cc1 | 80
Cc1cc2c(c(=O)n1CCN(C)C)C(c1cccc(Br)c1)C(C#N)=C(N)O2 (stereo not shown) | 82
Cc1csc(NC(=O)C2CCN(S(=O)(=O)c3cc(C(=O)N4CCCCCC4)cs3)CC2)n1 | 74
CC(C)(C)NC(=S)N/N=C/C=N/NC(=S)NC(C)(C)C | 65
Cc1nc(-c2cccc(Cl)c2)n(CC(=O)NCc2ccc3c(c2)OCO3)c(=O)c1CCO | 147
Cc1nn(C)c(C)c1CNC(=O)c1ccc(-c2nc(CN3CCN(c4ccccc4)CC3)c(C)o2)cc1 | 76
Cc1nc(N2CCCCCCC2)ncc1C(C)NC(=O)c1c(C)noc1C (stereo not shown) | 107
COc1ccc(C(=O)Nc2nc3c(s2)CN(Cc2ccccc2)CC3)cc1 | 71
COc1ccc(-c2noc(CC3CCN(C(=O)C4(c5ccc(OC)cc5)CC4)CC3)n2)cc1 | 81
Cc1c[nH]c(-c2c(-c3ccccc3)ncn2Cc2ccccc2CN(C)C)n1 | 85

Mixed results
Structure (SMILES) | target or system | test | system | setting | scale | quantity | value
CNC(=O)c1cc(C(=O)NC2CC2)cn(Cc2ccccc2)c1=O | ADRA2B (Homo sapiens, UniProt P18089) | binding, radioligand binding | – | 10 µM | – | inhibition | 5.2%
OC(c1ccccc1)(c1ccccc1)C1CCCN1 (stereo not shown) | – | – | human, microsomes or S9 | 2 µM, 0.5 h | – | remaining compound | 78.9%
CC(=O)N1CCC(c2ccc(C(=O)NC(=N)N)cc2C(F)(F)F)CC1 | HTR2A (Homo sapiens, UniProt P28223) | binding, radioligand binding | – | – | – | Ki | > 10 µM
NC1=NC(c2ccccc2)(c2ccccc2)C(=O)N1 | – | – | human, microsomes or S9 | 2 µM, 0.5 h | – | remaining compound | 94.8%
CN(C)C(=O)Cn1cc(-c2nc(C3(c4ccc(-c5cnc(N)nc5)cc4)CC3)no2)cn1 | OPRK1 (Homo sapiens, UniProt P41145) | cell-free assay | – | 10 µM | – | inhibition | 16.2%
CO[C@@H]1[C@@H](OC(N)=O)[C@@H](O)[C@H](Oc2ccc3c(O)c(NC(=O)c4ccc(O)c(CC=C(C)C)c4)c(=O)oc3c2C)OC1(C)C | RPE-1 BRCA2-/- | – | – | 100 µM | reference: untreated | surviving fraction | 0.808 and 0.715

Some of these lines once more (mixed results):
Structure (SMILES) | target or system | test | system | setting | scale | quantity | value
CNC(=O)c1cc(C(=O)NC2CC2)cn(Cc2ccccc2)c1=O | ADRA2B (Homo sapiens, UniProt P18089) | binding, radioligand binding | – | 10 µM | – | inhibition | 5.2%
OC(c1ccccc1)(c1ccccc1)C1CCCN1 (stereo not shown) | – | – | human, microsomes or S9 | 2 µM, 0.5 h | – | remaining compound | 78.9%
